Assay results of several laboratories.
Compare with care: the assays were run in different laboratories. “And” joins repeats or separate records; there may be more than shown. Numbers after ± are the reported error.
B1: aldolase A; sequence looked up; chain PYQYPALTPEQKKELSDIAHRIVAPGKGILAADESTGSIAKRLQSIGTENTEENRRFYRQLLLTADDRVNPCIGGVILFHETLYQKADDGRPFPQVIKSKGGVVGIKVDKGVVPLAGTNGETTTQGLDGLSERCAQYKKDGADFAKWRCVLKIGEHTPSALAIMENANVLARYASICQQNGIVPIVEPEILPDGDHDLKRCQYVTEKVLAAVYKALSDHHIYLEGTLLKPNMVTPGHACTQKFSHEEIAMATVTALRRTVPPAVTGITFLSGGQSEEEASINLNAINKCPLLKPWALTFSYGRALQASALKAWGGKKENLKAAQEEYVKRALANSLACQGKYTPSGQAGAAASESLFVSNHAY

Substance | tested on | assay | test system | conditions | how to read | quantity | result
B1 (aldolase A) | – | peptide binding, SILAC pull-down | – | concentration not given | baseline: non-acetylated over acetylated NIT1 peptide | log2 fold change | -0.871
insulin human | – | item: GLUD1 mRNA | uninfected mouse, brain | i.p., dose not given | baseline: PBS | fold change | 1.05
GWTLNSAGYLLGPHAVDNHRSFNDKHGFT-NH2 (C-amide) | – | – | peptide, Gnaq intestinal cKO mice, DSS colitis | ip, 3 µM, 2% DSS | – | colon length | 4.7 cm and 5 cm and 4.8 cm and 5.2 cm and 5.8 cm
FAAPQFSLW | Mamu-A1*02601 MHC class I | peptide binding | peptide, Chinese rhesus macaque | – | – | IC50 | > 20 µM
GWTLNSAGYLLGPRRIDHLLMIKEMPIARGREEAPGA / YAVDNHRSFNDKHGFT-NH2 (C-amide) | – | RT-qPCR, item: Tjp1 | mouse, DSS-induced colitis, colon | ip, 3 µM, 3% DSS, unit not given | baseline: Gapdh | mRNA level | 4.85 and 4.45 and 7.31 and 5.73
hexaarginine | PorA peptide pore | peptide binding, planar bilayer single-channel recording | – | 0.5 µM, pH 7.4, -10 mV, cis side, 150 mM KCl | – | koff | 1670 ± 160 s⁻¹
pertussis toxin | – | immunostaining, item: p-PKA | humanized UT (+/h+) mice, SAH model, middle cerebral artery | dose not given | – | phospho-PKA level | 29.7 MFI and 31.5 MFI and 20.8 MFI
colistin | Aspergillus fumigatus | – | mito::GFP | concentration not given, 15 min, germlings | – | mitochondrial fragmentation | 27.5% and 21.9%
aspterric acid | – | hypocotyl length | Arabidopsis thaliana Col-0 seeds | 12.5 µg/mL | – | inhibition | 95.2%
KISEYRHYV | ASPC1 (HLA-A2− HPV−) | 111In release | peptide | concentration not given, 16 h, E:T 25:1, IVS 5, with: peptide-generated T-cell line | – | specific lysis | 0.2% and 0.5%
nonaarginine | PorA peptide pore | peptide binding, planar bilayer single-channel recording | – | 0.5 µM, pH 7.4, -40 mV, cis side, 150 mM KCl | – | kon | 3e+07 ± 3e+06 M⁻¹ s⁻¹
